# Measurements collected from several papers.
# Each line is one published result; not all experiments were run side by side. ± marks the error that the study gave.
# Organism: Salmonella typhimurium
Compound,test,test system,conditions,how to read,endpoint,value
CC(C)N(C)N=O,"mutagenicity, Ames plate incorporation",TA100,"50 µg/plate, 3 d, without S9, methanol",,revertant colonies per plate,158 ± 21
O=[N+]([O-])c1ccc(NC2CCNCC2)c(C(F)(F)F)c1,SOS/umu test,TA1535/pSK1002,"0.001 mg/mL, 4 h, without S9 activation",,survival,128%
Cc1cc(C(=O)NC(C)(C)COc2cccc3c2C(N)=NS(=O)(=O)N3)cc(C)n1,"Ames test, initial",TA100,50.0 µg/plate,baseline: solvent control,revertant ratio,1.1
CN(N=O)c1ccc(F)cc1,"mutagenicity, Ames plate incorporation",TA100,"150 µg/plate, 3 d, without S9, methanol",,revertant colonies per plate,155 ± 11
COc1cccc(-c2n[nH]c(SCc3ccccn3)n2)c1OC,"Ames test, preincubation",TA1537,"2.0 mg/plate, without S9",,revertant colonies per plate,1
CNC(=O)c1c(N(C)N=O)ncn1C,"mutagenicity, Ames plate incorporation",TA98,"5000 µg/plate, without S9, methanol",,revertant colonies per plate,33.3 ± 15
OC(CCN1CC=C(c2ccc(F)cc2)CC1)c1ccc(F)c2ccccc12 (stereo not drawn),SOS/umu test,TA1535/pSK1002,"0.063 mg/mL, 4 h, without S9, lower range",,survival,27.2%
N#C[C@@]1(n2ccc(N)nc2=O)O[C@H](CO)[C@@H](O)[C@H]1O,,TA100,"25 µM, without S9",baseline: control,viability,93%
O=[N+]([O-])c1ccc(N2CCN(CCC(O)c3ccc(F)cc3)CC2)c(C(F)(F)F)c1 (stereo not drawn),SOS/umu test,TA1535/pSK1002,"0.25 mg/mL, 4 h, with S9, lower range",,survival,81.7%
CC(=O)N1CCC(C(=O)N2CCN3C(=O)c4cc(-c5ccccc5)ccc4NC(=O)C3C2)CC1 (stereo not drawn),,TA100,"158 µg/plate, with rat liver S9",,revertants per plate,108
CN(CC(C)(C)C)N=O,"mutagenicity, Ames plate incorporation",TA1537,"50 µg/plate, without S9, methanol",,revertant colonies per plate,13 ± 4
O=[N+]([O-])c1ccc(N2CCC(NCCC(O)c3ccc(F)c4ccccc34)CC2)c(C(F)(F)F)c1 (stereo not drawn),SOS/umu test,TA1535/pSK1002,"0.063 mg/mL, 4 h, without S9, full range",,survival,93%

# A few entries again:
Compound,test,test system,conditions,how to read,endpoint,value
O=[N+]([O-])c1ccc(NC2CCNCC2)c(C(F)(F)F)c1,SOS/umu test,TA1535/pSK1002,"0.001 mg/mL, 4 h, without S9 activation",,survival,128%
